Measurements from different studies.
Lines come from different studies, so protocols differ. ± marks the error that the study gave.
Target: Sodium-dependent noradrenaline transporter (SLC6A2, Homo sapiens, UniProt P23975)
Chain of UniProt P23975 (whole entry, looked up): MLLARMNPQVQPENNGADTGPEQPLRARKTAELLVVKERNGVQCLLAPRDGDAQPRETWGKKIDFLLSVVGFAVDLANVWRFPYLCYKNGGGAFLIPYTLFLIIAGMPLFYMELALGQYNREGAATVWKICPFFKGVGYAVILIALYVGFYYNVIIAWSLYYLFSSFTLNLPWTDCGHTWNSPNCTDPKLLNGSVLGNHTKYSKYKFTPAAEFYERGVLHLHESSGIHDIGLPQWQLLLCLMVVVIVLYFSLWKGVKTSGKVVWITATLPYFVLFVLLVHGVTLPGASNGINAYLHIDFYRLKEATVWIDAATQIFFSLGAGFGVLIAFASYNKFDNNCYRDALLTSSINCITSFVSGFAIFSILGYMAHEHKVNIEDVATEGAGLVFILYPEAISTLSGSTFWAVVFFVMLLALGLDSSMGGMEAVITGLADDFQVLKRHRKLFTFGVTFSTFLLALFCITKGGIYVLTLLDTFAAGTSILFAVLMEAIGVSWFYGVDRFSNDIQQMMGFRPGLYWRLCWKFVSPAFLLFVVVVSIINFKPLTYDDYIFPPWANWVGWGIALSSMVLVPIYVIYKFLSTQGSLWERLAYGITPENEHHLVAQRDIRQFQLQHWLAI
Action: inhibitor

The IC50 of `CN1[C@H]2CC[C@@H]1[C@@H](C(=O)N1CCCC1)[C@@H](c1ccc(I)cc1)C2` is reported as 0.935 ± 0.14 µM (noradrenaline reuptake; HEK293 expressing SLC6A2; 10 min, room temperature, added: [3H]noradrenaline 20 nM).
With `NCCc1ccccc1` the IC50 was 0.385 µM (transporter uptake, radiometric).
For `CNC(C)C(=O)c1ccc(O)c(O)c1` (stereo not shown), the IC50 was 0.78 µM (transporter uptake).
`NCCc1ccc(O)cc1` gave an IC50 of 1.03 µM (transporter uptake, radiometric).
`CCN(CC)C(=O)[C@@H]1C=C2c3cccc4[nH]cc(c34)C[C@H]2N(C)C1` has an IC50 of > 10 µM (transporter uptake, radiometric).
The IC50 of `CNC(C)Cc1ccc(O)c(O)c1` (stereo not shown) is reported as 0.35 µM (transporter uptake).
With `CC1NC(C)(C)COC1(O)c1cccnc1` (stereo not shown) the IC50 was > 10 µM ([3H]norepinephrine uptake; HEK293 expressing human NET; added: [3H]norepinephrine).
`COc1cc(CC(C)N)c(OC)cc1C` (single isomer, unassigned; (-)) has an IC50 of > 70 µM (transporter uptake, radiometric).
For `CNC(C)Cc1ccc(O)c(OC)c1` (stereo not shown), the IC50 was 10 µM (transporter uptake).
The IC50 of `COC(=O)[C@H]1C(c2ccc(I)cc2)C[C@@H]2CC[C@H]1N2C` (stereo partly shown) is reported as 0.0379 µM (transporter uptake, radiometric).
With `CCc1ccc2[nH]c3nc(SCCNS(=O)(=O)c4ccc(NC(C)=O)cc4)nnc3c2c1` the IC50 was 119 µM (transporter uptake, radiometric).
For `CC(N)C(=O)c1ccc2c(c1)OCO2` (stereo not shown), the IC50 was 2.3 µM (transporter uptake).
The IC50 of `COc1ccc([C@]2(O)OCC(C)(C)N[C@H]2C)cc1` is reported as > 10 µM ([3H]norepinephrine uptake; HEK293 expressing human NET; added: [3H]norepinephrine).

For quick reference, copied from above:
The IC50 of `CNC(C)Cc1ccc(O)c(O)c1` (stereo not shown) is reported as 0.35 µM (transporter uptake).
The IC50 of `COC(=O)[C@H]1C(c2ccc(I)cc2)C[C@@H]2CC[C@H]1N2C` (stereo partly shown) is reported as 0.0379 µM (transporter uptake, radiometric).
